Measurements gathered from unrelated publications.
Lines come from different studies, so protocols differ. Values joined by “and” are separate records of one study, mostly repeats; a detail may differ. ± marks the error that the study gave.
UniProt P26718, sequence (whole entry, looked up): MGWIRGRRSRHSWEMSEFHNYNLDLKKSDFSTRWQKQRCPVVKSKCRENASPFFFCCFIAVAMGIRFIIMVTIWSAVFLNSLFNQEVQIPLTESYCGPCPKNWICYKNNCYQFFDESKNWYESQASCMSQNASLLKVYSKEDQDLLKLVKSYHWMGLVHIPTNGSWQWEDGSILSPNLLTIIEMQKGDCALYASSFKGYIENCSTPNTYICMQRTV
UniProt P33261, sequence (whole entry, looked up): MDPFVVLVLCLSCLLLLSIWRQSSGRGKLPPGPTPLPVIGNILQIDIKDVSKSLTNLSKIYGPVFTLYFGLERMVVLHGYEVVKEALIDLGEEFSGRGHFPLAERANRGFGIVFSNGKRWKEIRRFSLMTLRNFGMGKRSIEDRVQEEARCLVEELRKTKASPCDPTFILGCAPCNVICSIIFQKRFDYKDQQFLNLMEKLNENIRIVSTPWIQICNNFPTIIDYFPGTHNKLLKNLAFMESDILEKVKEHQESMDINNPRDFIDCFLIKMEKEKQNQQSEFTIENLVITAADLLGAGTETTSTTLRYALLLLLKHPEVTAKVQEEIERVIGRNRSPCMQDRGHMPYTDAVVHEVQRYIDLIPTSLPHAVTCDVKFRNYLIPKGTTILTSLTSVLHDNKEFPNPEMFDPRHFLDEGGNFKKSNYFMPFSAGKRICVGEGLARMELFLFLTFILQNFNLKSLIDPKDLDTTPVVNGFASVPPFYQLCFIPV
UniProt Q9Y253, sequence (whole entry, looked up): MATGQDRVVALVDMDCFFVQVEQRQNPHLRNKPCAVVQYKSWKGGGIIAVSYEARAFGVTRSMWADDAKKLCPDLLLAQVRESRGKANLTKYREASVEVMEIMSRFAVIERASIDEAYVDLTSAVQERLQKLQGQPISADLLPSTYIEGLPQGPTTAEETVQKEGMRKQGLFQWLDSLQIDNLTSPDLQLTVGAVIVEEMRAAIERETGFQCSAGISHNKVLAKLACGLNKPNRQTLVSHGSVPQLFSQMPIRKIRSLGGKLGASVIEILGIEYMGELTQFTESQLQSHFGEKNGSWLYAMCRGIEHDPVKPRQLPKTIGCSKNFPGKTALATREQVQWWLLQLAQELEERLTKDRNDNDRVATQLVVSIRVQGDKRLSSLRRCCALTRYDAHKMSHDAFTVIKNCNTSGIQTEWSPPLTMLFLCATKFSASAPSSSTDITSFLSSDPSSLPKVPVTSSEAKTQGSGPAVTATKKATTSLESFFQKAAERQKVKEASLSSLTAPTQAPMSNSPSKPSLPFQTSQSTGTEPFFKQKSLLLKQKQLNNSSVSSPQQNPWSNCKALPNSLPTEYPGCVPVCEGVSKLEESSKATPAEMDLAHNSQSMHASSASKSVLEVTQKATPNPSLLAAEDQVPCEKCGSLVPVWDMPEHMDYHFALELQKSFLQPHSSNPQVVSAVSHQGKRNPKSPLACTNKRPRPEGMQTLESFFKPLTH
UniProt P68400, sequence (whole entry, looked up): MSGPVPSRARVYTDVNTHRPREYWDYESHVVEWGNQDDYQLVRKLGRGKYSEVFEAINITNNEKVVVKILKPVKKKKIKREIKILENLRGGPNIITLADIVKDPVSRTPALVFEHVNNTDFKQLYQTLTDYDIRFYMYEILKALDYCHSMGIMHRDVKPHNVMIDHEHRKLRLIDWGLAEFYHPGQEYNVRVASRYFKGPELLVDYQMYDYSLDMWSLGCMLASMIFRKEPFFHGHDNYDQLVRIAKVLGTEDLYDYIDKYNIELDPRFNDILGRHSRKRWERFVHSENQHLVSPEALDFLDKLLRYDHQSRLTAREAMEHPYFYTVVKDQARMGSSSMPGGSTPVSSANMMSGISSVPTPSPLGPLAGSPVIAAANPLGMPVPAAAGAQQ
UniProt P63104, sequence (whole entry, looked up): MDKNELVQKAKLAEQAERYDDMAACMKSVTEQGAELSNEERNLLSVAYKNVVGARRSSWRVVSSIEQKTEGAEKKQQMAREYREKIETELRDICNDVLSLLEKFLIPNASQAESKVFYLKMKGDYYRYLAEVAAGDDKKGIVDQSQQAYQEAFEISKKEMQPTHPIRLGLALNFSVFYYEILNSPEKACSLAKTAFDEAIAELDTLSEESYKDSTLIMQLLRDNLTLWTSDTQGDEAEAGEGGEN
UniProt P30969, sequence (whole entry, looked up): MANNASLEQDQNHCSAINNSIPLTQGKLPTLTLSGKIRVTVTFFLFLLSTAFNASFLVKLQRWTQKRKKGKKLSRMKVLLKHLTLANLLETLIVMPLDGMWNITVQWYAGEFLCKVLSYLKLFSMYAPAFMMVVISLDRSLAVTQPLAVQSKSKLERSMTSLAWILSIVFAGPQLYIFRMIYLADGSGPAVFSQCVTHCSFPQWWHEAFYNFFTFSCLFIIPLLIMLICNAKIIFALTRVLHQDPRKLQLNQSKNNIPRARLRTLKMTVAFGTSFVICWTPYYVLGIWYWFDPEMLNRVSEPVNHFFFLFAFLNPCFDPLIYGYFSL
UniProt P11473, sequence (whole entry, looked up): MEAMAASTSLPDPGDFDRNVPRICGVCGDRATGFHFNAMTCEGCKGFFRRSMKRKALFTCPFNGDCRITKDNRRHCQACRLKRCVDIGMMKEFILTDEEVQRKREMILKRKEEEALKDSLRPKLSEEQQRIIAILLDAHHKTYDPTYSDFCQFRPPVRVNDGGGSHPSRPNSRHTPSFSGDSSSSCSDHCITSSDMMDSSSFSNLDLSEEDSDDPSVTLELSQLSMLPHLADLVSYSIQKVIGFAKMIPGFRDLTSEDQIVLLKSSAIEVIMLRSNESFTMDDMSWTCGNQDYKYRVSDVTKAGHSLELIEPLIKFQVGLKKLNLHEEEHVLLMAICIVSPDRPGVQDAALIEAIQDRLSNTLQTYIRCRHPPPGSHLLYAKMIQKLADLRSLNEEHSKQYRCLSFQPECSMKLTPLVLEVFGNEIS
UniProt P61073, sequence (whole entry, looked up): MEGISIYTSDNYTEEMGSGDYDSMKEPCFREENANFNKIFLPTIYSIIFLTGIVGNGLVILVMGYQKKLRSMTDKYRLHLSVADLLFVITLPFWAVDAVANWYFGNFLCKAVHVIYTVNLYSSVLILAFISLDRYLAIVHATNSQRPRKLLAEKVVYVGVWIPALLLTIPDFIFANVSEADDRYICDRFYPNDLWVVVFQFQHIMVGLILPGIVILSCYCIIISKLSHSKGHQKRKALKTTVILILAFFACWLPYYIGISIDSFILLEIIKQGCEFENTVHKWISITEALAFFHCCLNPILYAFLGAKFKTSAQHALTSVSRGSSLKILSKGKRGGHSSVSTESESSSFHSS
UniProt P30101, sequence (whole entry, looked up): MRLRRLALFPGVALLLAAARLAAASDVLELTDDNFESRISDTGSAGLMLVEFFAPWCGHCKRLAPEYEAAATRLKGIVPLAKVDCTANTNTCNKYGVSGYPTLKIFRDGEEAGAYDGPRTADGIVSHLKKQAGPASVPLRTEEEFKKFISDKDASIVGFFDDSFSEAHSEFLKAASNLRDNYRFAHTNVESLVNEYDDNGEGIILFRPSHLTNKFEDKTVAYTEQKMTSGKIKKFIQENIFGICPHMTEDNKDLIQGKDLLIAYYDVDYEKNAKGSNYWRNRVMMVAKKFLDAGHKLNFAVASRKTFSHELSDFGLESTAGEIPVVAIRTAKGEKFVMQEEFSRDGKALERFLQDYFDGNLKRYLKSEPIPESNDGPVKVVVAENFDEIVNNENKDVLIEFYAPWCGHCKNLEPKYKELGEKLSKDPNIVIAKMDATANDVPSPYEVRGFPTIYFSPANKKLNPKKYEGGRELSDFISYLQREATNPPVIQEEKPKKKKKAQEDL
UniProt P27487, sequence (whole entry, looked up): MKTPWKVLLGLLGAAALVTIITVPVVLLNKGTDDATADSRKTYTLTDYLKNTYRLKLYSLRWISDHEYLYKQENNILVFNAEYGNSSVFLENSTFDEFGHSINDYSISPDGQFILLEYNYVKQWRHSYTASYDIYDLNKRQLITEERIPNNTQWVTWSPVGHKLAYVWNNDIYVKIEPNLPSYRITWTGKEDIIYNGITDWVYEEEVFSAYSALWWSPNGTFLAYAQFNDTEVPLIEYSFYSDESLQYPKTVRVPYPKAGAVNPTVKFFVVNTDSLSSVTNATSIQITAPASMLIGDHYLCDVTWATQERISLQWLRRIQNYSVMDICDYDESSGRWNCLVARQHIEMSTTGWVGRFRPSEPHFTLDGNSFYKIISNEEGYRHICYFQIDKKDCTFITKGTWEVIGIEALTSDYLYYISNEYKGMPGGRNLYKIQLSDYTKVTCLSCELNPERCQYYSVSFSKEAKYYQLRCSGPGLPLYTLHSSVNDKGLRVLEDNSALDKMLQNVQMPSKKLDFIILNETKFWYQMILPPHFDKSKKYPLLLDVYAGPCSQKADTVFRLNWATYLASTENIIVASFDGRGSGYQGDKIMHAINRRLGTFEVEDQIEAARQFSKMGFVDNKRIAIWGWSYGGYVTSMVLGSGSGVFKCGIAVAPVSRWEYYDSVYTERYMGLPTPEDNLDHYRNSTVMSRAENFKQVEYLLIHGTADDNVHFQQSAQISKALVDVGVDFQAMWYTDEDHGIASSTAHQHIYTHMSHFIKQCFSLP
UniProt P0AC78, sequence (whole entry, looked up): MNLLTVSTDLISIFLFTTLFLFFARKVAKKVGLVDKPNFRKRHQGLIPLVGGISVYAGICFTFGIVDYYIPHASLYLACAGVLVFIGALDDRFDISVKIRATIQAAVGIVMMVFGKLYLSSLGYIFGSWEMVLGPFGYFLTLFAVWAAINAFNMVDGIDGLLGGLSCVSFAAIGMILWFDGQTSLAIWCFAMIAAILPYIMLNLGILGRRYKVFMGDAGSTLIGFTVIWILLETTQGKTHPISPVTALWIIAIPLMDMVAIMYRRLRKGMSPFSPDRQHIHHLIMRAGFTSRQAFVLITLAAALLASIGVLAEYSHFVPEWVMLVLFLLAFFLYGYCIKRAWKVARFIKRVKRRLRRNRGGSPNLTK

| Compound | target | assay | system | setting | IC50 |
| --- | --- | --- | --- | --- | --- |
| Cc1cccc(-c2nc(Nc3ccncn3)c3c(C)csc3n2)n1 | CYP2C19 (Homo sapiens, UniProt P33261) | inhibitor |  |  | 0.7 µM |
| COC(=O)C=CCCC(NC(=O)c1ccncc1C(=O)O)C(=O)NC(C(=O)N1CC(=O)CC1C(=O)NC(C(=O)NC(C(N)=O)C1CCCCC1)C1CCCCC1)C(C)(C)C (centres unmarked) | Coagulation factor XIII A chain (Pig, UniProt K7GQL2) | isopeptidase activity, inhibitor |  | pig enzyme, with: substrate A101 | ~0.37 µM and 0.365 µM |
| Nc1ncnc2c1ncn2[C@@H]1O[C@H](CSCCNC(=O)NCCc2ccccc2)[C@@H](O)[C@H]1O | PRMT9 (Homo sapiens, UniProt Q6P2P2) | enzyme activity, inhibitor, radiometric |  |  | > 50 µM |
| CC(C)C[C@H](NC(=O)[C@@H](CCCCN)NC(=O)[C@H](Cc1c[nH]cn1)NC(=O)[C@H](CO)NC(=O)[C@H](Cc1c[nH]c2ccccc12)NC(=O)[C@H](Cc1c[nH]cn1)NC(=O)[C@@H]1CCC(=O)N1)C(=O)N[C@@H](CCCNC(=N)N)C(=O)N1CCC[C@H]1C(=O)NCC(N)=O | Gonadotropin-releasing hormone receptor (Rattus norvegicus, UniProt P30969) | binding, radioligand displacement | WPE-1-NB26-3 expressing Gonadotropin-releasing hormone receptor, whole cells | with: radioiodinated GnRH analogue | 0.0051 ± 0.0003 µM |
| CC(C)C[C@H](NC(=O)[C@H](CC(C)C)NC(=O)[C@H](C)NC(=O)[C@H](CO)NC(=O)[C@H](CC(=O)O)NC(=O)[C@H](CCC(=O)O)NC(=O)[C@@H]1CCCN1C(=O)[C@H](CC(=O)O)NC(=O)[C@H](CCC(=O)O)NC(=O)[C@@H]1CCCN1C(=O)[C@@H](NC(=O)[C@@H](N)CC(C)C)C(C)C)C(=O)O | HLA-DRA/HLA-DRB3 (Homo sapiens, UniProt P01903+P79483) | binding, competition binding | purified HLA-DR | 48 h, with: radiolabelled probe peptide 0.1-1 nM | > 5 µM |
| Cc1cc([C@H](NC(=O)c2cnccc2-c2ccc(C(F)(F)F)cc2)C(=O)N(C)C)cc(C(F)(F)F)c1 | NKG2-D type II integral membrane protein, with ULBP6 (KLRK1, Homo sapiens, UniProt P26718) | ligand binding, inhibitor, TR-FRET | HEK293 expressing NKG2D and DAP10 | with: ULBP6-AF647 | 0.4 ± 0.3 µM |
| C[C@H](CS)C(=O)Nc1ccccc1-c1nnn(C)n1 | Metallo-beta-lactamase type 2 (Serratia marcescens, UniProt P52699) | enzyme activity, inhibitor, fluorescence |  | 10 min preincubation, with: FC5 | 12.6 µM |
| COC1C(C(OC2OC(C(=O)NC3CCCCNC3=O)=CC(O)C2O)C(N)=O)OC(n2ccc(=O)[nH]c2=O)C1OC (centres unmarked) | Undecaprenyl-phosphate alpha-N-acetylglucosaminyl 1-phosphate transferase (wecA, Escherichia coli, UniProt P0AC78) |  |  |  | 0.035 ± 9.14 µM |
| N#C[C@@]1(c2ccc3c(N)ncnn23)O[C@H](COP(=O)(O)OP(=O)(O)OP(=O)(O)O)[C@@H](O)[C@H]1O | POLRMT (Homo sapiens, UniProt O00411) | enzyme activity, inhibitor |  |  | > 200 µM |
| CN(C)C(=O)[C@@H](NC(=O)c1ccccc1-c1ccc(C(F)(F)F)cc1)c1cccc(C(F)(F)F)c1 | NKG2-D type II integral membrane protein, with MICA (KLRK1, Homo sapiens, UniProt P26718) |  |  |  | 1.2 ± 0.6 µM |
| CCCCC[N+](CCCCC)(CCCCC)CCCCC | Kcnk2 (Rattus norvegicus, UniProt Q920B6, T157C) | ion current, inhibitor, inside-out patch clamp |  |  | 123 ± 11 µM |
| COC(=O)C1CN1S(=O)(=O)c1c(C)cc(C)cc1C (centres unmarked) | PDIA3 (Homo sapiens, UniProt P30101) | enzyme activity, inhibitor, absorbance |  | pH 7.6 | 190 µM |
| CC(=O)[O][Cu+].CN1CCN2CCN(C)CCN(CC1)CC2 | CXCR4 (Homo sapiens, UniProt P61073) | ligand displacement, flow cytometry |  |  | 0.0168 µM |
| CC(=O)N[C@@H](CCCNC(=N)N)C(=O)N[C@H](C(=O)N1CCC[C@H]1C(=O)N[C@@H](COP(=O)(O)O)C(=O)N[C@@H](CC(C)C)C(=O)N1CCC[C@H]1C(=O)NCC(=O)N1CCC[C@H]1C(c1ccccc1)c1ccccc1)[C@@H](C)O | YWHAZ (Homo sapiens, UniProt P63104) | peptide binding, inhibitor, competitive fluorescence polarization |  | 10 µM protein, with: 100 nM FAM-labelled diphosphorylated Tau peptide | 5.9 µM |
| CC(=O)Nc1ccc2ccn(-c3cc(NC4C5CC6CC(C5)CC4C6)n4ncc(C#N)c4n3)c2c1 (centres unmarked) | CSNK2A1 (Homo sapiens, UniProt P68400) | target engagement in cells, BRET |  |  | 7.94 µM |
| CC(C)C[C@H](NC(=O)[C@@H]1CCCN1)C(=O)N1CCC[C@H]1C(=O)N[C@@H](Cc1c[nH]c2ccccc12)C(=O)O | DPP4 (Homo sapiens, UniProt P27487) | enzyme activity, inhibitor, absorbance |  |  | 442 µM |
| Cc1cc(Nc2cc(CN(C)C)cc(NC(=O)c3cc(CN(C)C)cc(Nc4ccnc5ccccc45)c3)c2)nc(N)n1 | DNA polymerase eta (POLH, Homo sapiens, UniProt Q9Y253) | enzyme activity, inhibitor |  |  | 3.9 µM |
| CC(=O)SC[C@@H](C)C(=O)Nc1ccccc1-c1nn[nH]n1 | blaNDM-1 (Klebsiella pneumoniae, UniProt C7C422) | enzyme activity, inhibitor, fluorescence |  | with preincubation | 30.2 µM |
| CN(C(=O)c1ccn2ncc(-c3ccc(C(F)(F)F)cc3)c2c1)c1ccc(C#N)cn1 | Phosphatidylinositol 4-kinase (Cryptosporidium parvum, UniProt Q5CVD3) | enzyme activity |  | with: ATP 3 µM | 0.212 µM |
| C[N+](C)(C)CCSS(C)(=O)=O | arsenite methyltransferase (Chlamydomonas reinhardtii, UniProt K0BVM7) |  |  |  | 220 µM |
| CC[N+](CC)(CC)CC | Potassium channel protein kcv, L70A in one subunit (A250R, Paramecium bursaria Chlorella virus 1, UniProt Q84568, L70A) |  |  |  | 340 ± 20 µM |
| CC[C@H](C)[C@H](NC(=O)[C@H](CO)NC(=O)[C@H](CC(N)=O)NC(=O)[C@H](CC(C)C)NC(=O)[C@H](Cc1ccc(O)cc1)NC(=O)[C@H](CCCCN)NC(=O)[C@H](CCCCN)NC(=O)[C@@H](NC(=O)[C@H](C)NC(=O)[C@H](CCSC)NC(=O)[C@H](CCC(N)=O)NC(=O)[C@H](CCCCN)NC(=O)[C@H](CCCN=C(N)N)NC(=O)[C@H](CC(C)C)NC(=O)[C@H](CCCN=C(N)N)NC(=O)[C@@H](NC(=O)[C@H](Cc1ccc(O)cc1)NC(=O)[C@H](CC(N)=O)NC(=O)[C@H](CC(=O)O)NC(=O)[C@@H](NC(=O)[C@H](Cc1ccccc1)NC(=O)[C@@H](NC(=O)[C@H](C)NC(=O)[C@H](CC(=O)O)NC(=O)[C@H](CO)NC(=O)[C@@H](N)Cc1c[nH]cn1)C(C)C)[C@@H](C)O)[C@@H](C)O)C(C)C)C(=O)N[C@@H](CC(C)C)C(=O)N[C@@H](CC(N)=O)C(N)=O | ADCYAP1R1 (Homo sapiens, UniProt P41586) |  |  |  | > 1 µM |
| CC(C)C[C@H](NC(=O)[C@@H](N)CCCCN)C(=O)NCC(=O)NCC(=O)NCC(=O)N[C@@H](CCC(N)=O)C(=O)N[C@@H](Cc1ccc(O)cc1)C(=O)NCC(=O)N[C@@H](CCC(=O)O)C(=O)O | HLA class I histocompatibility antigen, A alpha chain, allele A*33:01 (Homo sapiens, UniProt P04439) | peptide binding, competitive radioligand binding |  | room temperature, HLA-A*3301 allele, with: radiolabelled probe peptide | 63.6 µM |
| CC(C)C[C@H](NC(=O)[C@H](C)NC(=O)[C@H](CC(N)=O)NC(=O)[C@H](CCC(=O)O)NC(=O)[C@@H](N)CCCCN)C(=O)N[C@@H](CC(C)C)C(=O)N[C@@H](CCCNC(=N)N)C(=O)N[C@@H](Cc1ccc(O)cc1)C(=O)N[C@@H](CC(C)C)C(=O)N[C@@H](CC(C)C)C(=O)N[C@@H](CC(=O)O)C(=O)N[C@@H](CCCCN)C(=O)N[C@@H](CC(=O)O)C(N)=O | Vitamin D3 receptor (VDR, Homo sapiens, UniProt P11473) | reporter gene, antagonist, dual-luciferase | MCF7 | 16 h, with: calcitriol 30 nM | > 100 µM |
| CC[C@H](C)[C@@H]1NC(=O)[C@H](Cc2ccc(O)cc2)NC(=O)CSC[C@@H](C(=O)NCC(N)=O)NC(=O)[C@H](CC(C)C)NC(=O)[C@H](CCCNC(=N)N)NC(=O)[C@H](Cc2ccccc2)NC(=O)[C@H](C(C)C)NC(=O)[C@H](Cc2ccc(O)cc2)NC(=O)[C@H](CC(C)C)NC(=O)[C@H](CCCNC(=N)N)NC(=O)[C@H](Cc2ccc(O)cc2)NC(=O)[C@H](CC(N)=O)NC(=O)[C@H](CC(N)=O)NC(=O)[C@H](Cc2c[nH]c3ccccc23)NC(=O)[C@H](C(C)C)NC(=O)[C@H](Cc2ccccc2)NC(=O)[C@H](CCCNC(=N)N)NC1=O | NNMT (Homo sapiens, UniProt P40261) | enzyme activity, inhibitor, mass spectrometry |  |  | 0.674 µM |
| CC[C@H](C)[C@H](NC(=O)[C@H](Cc1ccc(O)cc1)NC(=O)[C@H](CCCNC(=N)N)NC(=O)[C@H](CCCNC(=N)N)NC(=O)[C@H](CC(C)C)NC(=O)[C@H](CC(=O)O)NC(=O)[C@H](C)NC(=O)[C@H](C)NC(=O)[C@H](Cc1ccc(O)cc1)NC(=O)[C@H](CCC(=O)O)NC(=O)[C@H](CC(C)C)NC(=O)[C@@H]1CCCN1C(=O)[C@H](C)N)C(=O)N[C@@H](CC(N)=O)C(=O)N[C@@H](CCSC)C(=O)N[C@@H](CC(C)C)C(=O)N[C@H](C(=O)N[C@@H](CCCNC(=N)N)C(=O)N1CCC[C@H]1C(=O)N[C@@H](CCCNC(=N)N)C(=O)N[C@@H](Cc1ccc(O)cc1)C(N)=O)[C@@H](C)O | NPY4R (Homo sapiens, UniProt P50391) | radioligand binding | BHK membranes, transfected |  | 0.027 µM |
